{"data": "Measurements of several laboratories", "note": "Each numbered part is a random draw from the data of one study; scales do not carry over between parts.", "chain of UniProt O75676 (whole entry, looked up)": "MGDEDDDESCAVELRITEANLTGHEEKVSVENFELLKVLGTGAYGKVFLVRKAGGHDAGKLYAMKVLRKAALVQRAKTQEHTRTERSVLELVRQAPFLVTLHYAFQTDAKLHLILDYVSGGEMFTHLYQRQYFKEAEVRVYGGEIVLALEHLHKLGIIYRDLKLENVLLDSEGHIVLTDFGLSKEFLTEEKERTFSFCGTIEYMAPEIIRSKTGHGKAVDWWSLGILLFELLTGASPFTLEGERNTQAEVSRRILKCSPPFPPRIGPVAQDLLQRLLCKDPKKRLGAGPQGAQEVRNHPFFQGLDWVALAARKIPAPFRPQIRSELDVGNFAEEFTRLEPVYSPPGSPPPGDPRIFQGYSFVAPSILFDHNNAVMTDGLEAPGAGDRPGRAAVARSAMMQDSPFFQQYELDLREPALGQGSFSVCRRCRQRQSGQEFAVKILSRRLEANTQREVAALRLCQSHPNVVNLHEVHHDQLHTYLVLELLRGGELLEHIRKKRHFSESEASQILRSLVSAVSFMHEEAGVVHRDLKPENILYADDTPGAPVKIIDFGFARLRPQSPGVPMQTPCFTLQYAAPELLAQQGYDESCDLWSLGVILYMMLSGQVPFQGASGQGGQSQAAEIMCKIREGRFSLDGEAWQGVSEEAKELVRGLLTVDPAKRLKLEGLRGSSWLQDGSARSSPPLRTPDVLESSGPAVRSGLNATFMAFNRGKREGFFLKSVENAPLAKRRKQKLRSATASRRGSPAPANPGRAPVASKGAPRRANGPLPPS", "chain of UniProt Q15759 (whole entry, looked up)": "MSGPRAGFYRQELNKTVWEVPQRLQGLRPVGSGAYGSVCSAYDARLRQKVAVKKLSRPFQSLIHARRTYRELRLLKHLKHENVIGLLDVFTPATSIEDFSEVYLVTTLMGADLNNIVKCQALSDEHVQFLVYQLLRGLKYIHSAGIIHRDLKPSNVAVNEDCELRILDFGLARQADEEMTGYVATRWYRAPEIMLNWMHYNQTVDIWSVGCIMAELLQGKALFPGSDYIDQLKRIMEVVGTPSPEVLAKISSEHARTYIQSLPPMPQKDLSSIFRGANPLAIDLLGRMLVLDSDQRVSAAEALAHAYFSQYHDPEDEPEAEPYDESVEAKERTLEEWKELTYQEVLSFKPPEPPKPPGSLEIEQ", "chain of UniProt Q9H0K1 (whole entry, looked up)": "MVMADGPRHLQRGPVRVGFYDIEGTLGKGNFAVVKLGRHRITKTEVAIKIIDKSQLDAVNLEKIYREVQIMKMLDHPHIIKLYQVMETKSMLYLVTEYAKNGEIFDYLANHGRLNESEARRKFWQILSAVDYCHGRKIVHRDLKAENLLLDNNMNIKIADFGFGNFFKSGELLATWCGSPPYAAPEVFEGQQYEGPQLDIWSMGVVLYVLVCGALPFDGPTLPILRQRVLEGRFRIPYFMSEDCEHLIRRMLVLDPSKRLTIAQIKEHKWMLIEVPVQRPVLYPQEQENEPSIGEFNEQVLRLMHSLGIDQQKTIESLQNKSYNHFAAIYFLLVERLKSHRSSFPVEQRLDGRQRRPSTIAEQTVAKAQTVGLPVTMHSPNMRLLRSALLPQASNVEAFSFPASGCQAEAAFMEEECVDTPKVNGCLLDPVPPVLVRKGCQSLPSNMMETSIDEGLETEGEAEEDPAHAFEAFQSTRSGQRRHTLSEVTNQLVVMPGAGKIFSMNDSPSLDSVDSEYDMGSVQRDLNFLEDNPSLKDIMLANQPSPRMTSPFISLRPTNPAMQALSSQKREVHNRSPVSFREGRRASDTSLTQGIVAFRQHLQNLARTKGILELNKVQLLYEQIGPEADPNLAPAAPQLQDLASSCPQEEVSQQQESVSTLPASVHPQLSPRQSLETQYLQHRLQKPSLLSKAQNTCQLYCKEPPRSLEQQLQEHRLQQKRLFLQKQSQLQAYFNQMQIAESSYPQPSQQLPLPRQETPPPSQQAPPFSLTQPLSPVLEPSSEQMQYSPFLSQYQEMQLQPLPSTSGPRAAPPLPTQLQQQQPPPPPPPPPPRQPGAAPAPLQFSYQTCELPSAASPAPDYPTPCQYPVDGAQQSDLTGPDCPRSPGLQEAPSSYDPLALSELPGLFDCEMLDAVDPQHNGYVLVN", "chain of UniProt O76039 (whole entry, looked up)": "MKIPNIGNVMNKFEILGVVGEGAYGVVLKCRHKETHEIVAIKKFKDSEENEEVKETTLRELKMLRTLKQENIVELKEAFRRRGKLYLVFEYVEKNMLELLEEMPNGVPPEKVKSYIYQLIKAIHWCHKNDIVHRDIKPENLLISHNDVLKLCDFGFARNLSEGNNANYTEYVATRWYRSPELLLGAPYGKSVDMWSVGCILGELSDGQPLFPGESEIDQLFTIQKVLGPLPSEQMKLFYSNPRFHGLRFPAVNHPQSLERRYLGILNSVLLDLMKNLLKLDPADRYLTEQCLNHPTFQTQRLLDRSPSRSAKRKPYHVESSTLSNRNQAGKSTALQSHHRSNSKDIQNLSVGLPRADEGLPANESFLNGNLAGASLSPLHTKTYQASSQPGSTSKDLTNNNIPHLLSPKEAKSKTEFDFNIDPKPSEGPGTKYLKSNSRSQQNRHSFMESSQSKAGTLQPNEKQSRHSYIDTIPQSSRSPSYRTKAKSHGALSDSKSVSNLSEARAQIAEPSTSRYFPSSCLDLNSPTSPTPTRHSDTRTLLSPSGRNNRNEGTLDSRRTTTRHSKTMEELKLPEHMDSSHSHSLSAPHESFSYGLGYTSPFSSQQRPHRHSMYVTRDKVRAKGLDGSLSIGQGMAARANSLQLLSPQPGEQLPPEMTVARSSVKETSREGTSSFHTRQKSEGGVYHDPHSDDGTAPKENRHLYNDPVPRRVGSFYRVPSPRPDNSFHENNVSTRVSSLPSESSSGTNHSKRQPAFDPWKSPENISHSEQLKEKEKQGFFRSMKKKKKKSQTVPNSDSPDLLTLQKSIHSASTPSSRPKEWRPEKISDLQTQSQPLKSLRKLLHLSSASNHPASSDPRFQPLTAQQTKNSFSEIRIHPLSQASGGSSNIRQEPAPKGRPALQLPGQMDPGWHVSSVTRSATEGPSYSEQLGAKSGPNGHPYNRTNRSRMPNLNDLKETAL", "chain of UniProt O60674 (whole entry, looked up)": "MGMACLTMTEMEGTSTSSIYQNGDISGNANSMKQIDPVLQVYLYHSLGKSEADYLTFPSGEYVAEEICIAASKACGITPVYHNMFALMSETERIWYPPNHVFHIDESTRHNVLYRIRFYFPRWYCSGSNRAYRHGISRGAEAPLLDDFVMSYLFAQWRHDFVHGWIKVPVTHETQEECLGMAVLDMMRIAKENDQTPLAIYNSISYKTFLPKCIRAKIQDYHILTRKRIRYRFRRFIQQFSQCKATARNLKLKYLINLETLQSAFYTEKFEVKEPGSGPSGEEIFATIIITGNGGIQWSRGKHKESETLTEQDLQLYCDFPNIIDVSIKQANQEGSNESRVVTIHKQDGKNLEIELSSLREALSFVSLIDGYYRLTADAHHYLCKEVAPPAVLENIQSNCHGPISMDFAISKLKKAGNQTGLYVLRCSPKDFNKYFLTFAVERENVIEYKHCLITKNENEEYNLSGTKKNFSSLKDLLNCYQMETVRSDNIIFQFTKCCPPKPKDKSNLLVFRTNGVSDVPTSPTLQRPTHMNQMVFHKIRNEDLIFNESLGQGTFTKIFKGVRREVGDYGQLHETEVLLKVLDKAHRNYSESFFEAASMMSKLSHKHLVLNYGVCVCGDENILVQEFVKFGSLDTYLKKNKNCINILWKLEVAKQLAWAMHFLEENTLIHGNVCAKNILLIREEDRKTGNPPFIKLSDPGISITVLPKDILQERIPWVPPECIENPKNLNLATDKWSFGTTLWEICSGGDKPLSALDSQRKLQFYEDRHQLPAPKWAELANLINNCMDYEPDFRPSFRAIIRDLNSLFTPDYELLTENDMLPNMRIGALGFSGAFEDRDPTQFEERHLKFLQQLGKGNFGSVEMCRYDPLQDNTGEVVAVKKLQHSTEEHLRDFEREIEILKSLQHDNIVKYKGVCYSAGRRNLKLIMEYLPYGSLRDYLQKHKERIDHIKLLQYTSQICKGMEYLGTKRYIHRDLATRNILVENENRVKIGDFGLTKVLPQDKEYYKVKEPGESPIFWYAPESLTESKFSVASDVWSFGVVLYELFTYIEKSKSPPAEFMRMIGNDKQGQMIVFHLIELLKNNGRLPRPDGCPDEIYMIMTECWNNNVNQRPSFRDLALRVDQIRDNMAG", "chain of UniProt P42681 (whole entry, looked up)": "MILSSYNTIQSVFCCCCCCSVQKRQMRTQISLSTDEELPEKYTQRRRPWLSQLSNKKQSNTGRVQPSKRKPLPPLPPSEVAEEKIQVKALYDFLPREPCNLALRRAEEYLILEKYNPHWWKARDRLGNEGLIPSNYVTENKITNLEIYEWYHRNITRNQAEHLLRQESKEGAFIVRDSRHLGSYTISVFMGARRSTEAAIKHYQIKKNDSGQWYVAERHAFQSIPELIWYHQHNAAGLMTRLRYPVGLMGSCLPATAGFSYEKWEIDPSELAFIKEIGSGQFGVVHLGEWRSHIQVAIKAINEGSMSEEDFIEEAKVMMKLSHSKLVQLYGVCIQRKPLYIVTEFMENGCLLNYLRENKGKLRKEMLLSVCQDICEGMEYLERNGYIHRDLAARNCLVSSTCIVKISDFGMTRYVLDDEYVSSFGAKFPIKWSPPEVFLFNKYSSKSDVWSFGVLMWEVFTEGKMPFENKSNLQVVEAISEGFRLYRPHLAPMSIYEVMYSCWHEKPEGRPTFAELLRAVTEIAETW", "chain of UniProt P06493 (whole entry, looked up)": "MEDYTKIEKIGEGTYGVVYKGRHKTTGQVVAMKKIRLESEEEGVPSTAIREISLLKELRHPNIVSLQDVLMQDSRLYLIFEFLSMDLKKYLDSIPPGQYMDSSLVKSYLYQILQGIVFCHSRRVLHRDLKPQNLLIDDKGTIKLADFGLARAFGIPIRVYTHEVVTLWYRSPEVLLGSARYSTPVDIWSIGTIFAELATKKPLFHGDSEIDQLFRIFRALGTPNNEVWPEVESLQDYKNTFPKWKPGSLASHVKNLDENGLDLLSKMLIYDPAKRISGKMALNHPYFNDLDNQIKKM"}
{"data": "Block 1", "organism": "Plasmodium berghei", "action": "inhibitor", "cells": "Huh-7", "strain": "GFP-expressing sporozoites, liver stage", "concentration": "10 µM", "time": "24 h", "reference": "untreated control"}
{"Compound": "CC(=O)OCC(=O)[C@H]1CC[C@H]2[C@@H]3CCC4=CC(=O)CC[C@]4(C)[C@H]3CC[C@]12C", "infection rate [%]": 75.5}
{"Compound": "CC[N+](CC)(CC(=O)Nc1c(C)cccc1C)Cc1ccccc1", "infection rate [%]": 86.7}
{"Compound": "CCN(CC)CCOC(=O)C(c1ccccc1)c1ccccc1", "infection rate [%]": 90.5}
{"Compound": "CN1CCC[C@@H]1Cc1c[nH]c2ccc(CCS(=O)(=O)c3ccccc3)cc12", "infection rate [%]": 101}
{"Compound": "COc1cc2nc(N3CCN(C(=O)C4COc5ccccc5O4)CC3)nc(N)c2cc1OC (stereo not drawn)", "infection rate [%]": 57.2}
{"Compound": "NCCc1ccc(O)c(O)c1", "infection rate [%]": 93}
{"Compound": "NS(=O)(=O)c1cc2c(cc1Cl)N=C(CSCc1ccccc1)NS2(=O)=O", "infection rate [%]": 92.9}
{"Compound": "CCCCCCCCCCCCCCCC[N+](C)(C)C", "infection rate [%]": 15.8}
{"Compound": "CC(N)C(=O)OC(C)(C)Cc1ccc(Cl)cc1 (stereo not drawn)", "infection rate [%]": 103}
{"data": "Block 2", "SMILES": "C[C@@H]1CN(c2cc(-c3n[nH]c4ccc(OC5(C)CC5)cc34)ncn2)C[C@H](C)O1", "read-out": "cell-free assay", "technique": "competition with immobilised ligand", "concentration": "0.1 µM"}
{"target": "Ribosomal protein S6 kinase alpha-4, C-terminal kinase domain (RPS6KA4, Homo sapiens, UniProt O75676)", "remaining binding": "75%"}
{"target": "Tyrosine-protein kinase JAK2, JH1 (JAK2, Homo sapiens, UniProt O60674)", "remaining binding": "77%"}
{"target": "EIF2AK1 (Homo sapiens, UniProt Q9BQI3)", "remaining binding": "100%"}
{"target": "Macrophage colony-stimulating factor 1 receptor, autoinhibited (CSF1R, Homo sapiens, UniProt P07333)", "remaining binding": "84%"}
{"target": "CAMK4 (Homo sapiens, UniProt Q16566)", "remaining binding": "78%"}
{"target": "CDKL5 (Homo sapiens, UniProt O76039)", "remaining binding": "72%"}
{"target": "HASPIN (Homo sapiens, UniProt Q8TF76)", "remaining binding": "74%"}
{"target": "SIK2 (Homo sapiens, UniProt Q9H0K1)", "remaining binding": "87%"}
{"target": "TSSK1B (Homo sapiens, UniProt Q9BXA7)", "remaining binding": "72%"}
{"target": "MUSK (Homo sapiens, UniProt O15146)", "remaining binding": "56%"}
{"target": "NEK5 (Homo sapiens, UniProt Q6P3R8)", "remaining binding": "100%"}
{"target": "CSNK1G3 (Homo sapiens, UniProt Q9Y6M4)", "remaining binding": "95%"}
{"target": "EIF2AK2 (Homo sapiens, UniProt P19525)", "remaining binding": "100%"}
{"target": "OXSR1 (Homo sapiens, UniProt O95747)", "remaining binding": "72%"}
{"target": "PIM1 (Homo sapiens, UniProt P11309)", "remaining binding": "100%"}
{"target": "MET (Homo sapiens, UniProt P08581, Y1235D)", "remaining binding": "92%"}
{"target": "IGF1R (Homo sapiens, UniProt P08069)", "remaining binding": "100%"}
{"target": "WNK4 (Homo sapiens, UniProt Q96J92)", "remaining binding": "94%"}
{"target": "INSRR (Homo sapiens, UniProt P14616)", "remaining binding": "57%"}
{"target": "CLK3 (Homo sapiens, UniProt P49761)", "remaining binding": "94%"}
{"target": "CDK14 (Homo sapiens, UniProt O94921)", "remaining binding": "100%"}
{"target": "IKBKB (Homo sapiens, UniProt O14920)", "remaining binding": "84%"}
{"data": "Block 3", "SMILES": "COc1ccc(-c2c(Nc3ccccn3)[nH]c3c(C4=CCCCC4)c(-c4ccccc4)nn3c2=O)cc1", "medium": "plasma", "route": "oral"}
{"test system": "cancer patients", "setting": "150 mg, 3 h post-dose, single dose", "plasma concentration, mean [ng/mL]": 1460}
{"test system": "cancer patients", "setting": "100 mg, 1 h post-dose, single dose", "plasma concentration, mean [ng/mL]": 284}
{"test": "LC-MS/MS", "test system": "human", "setting": "200 mg twice daily, 8 h", "plasma concentration, mean [ng/mL]": 9530}
{"test system": "human patients", "setting": "400 mg once daily, 6 h, cycle 1", "plasma concentration, mean [ng/mL]": 3870}
{"test system": "cancer patients", "setting": "150 mg, 0.5 h post-dose, single dose", "plasma concentration, mean [ng/mL]": 405}
{"test system": "cancer patients", "setting": "200 mg, 1 h post-dose, single dose", "plasma concentration, mean [ng/mL]": 406}
{"test system": "human patients", "setting": "100 mg once daily, 24 h, cycle 1", "plasma concentration, mean [ng/mL]": 3540}
{"test": "LC-MS/MS", "test system": "human", "setting": "200 mg twice daily, 2 h, single dose", "plasma concentration, mean [ng/mL]": 1230}
{"test system": "human patients", "setting": "200 mg once daily, 6 h, cycle 1", "plasma concentration, mean [ng/mL]": 6650}
{"test system": "human patients", "setting": "150 mg once daily, 8 h, cycle 1", "plasma concentration, mean [ng/mL]": 5280}
{"data": "Block 4", "SMILES": "CCCCc1c(-c2ccc(O)cc2)[nH]c2nccnc12", "read-out": "enzyme activity", "action": "inhibitor", "concentration": "0.5 µM", "reference": "control"}
{"target": "PRKG2 (Homo sapiens, UniProt Q13237)", "remaining activity [%]": 92.6}
{"target": "DDR2 (Homo sapiens, UniProt Q16832)", "remaining activity [%]": 96}
{"target": "RPS6KA4 (Homo sapiens, UniProt O75676)", "remaining activity [%]": 87.5}
{"target": "ROCK1 (Homo sapiens, UniProt Q13464)", "remaining activity [%]": 98.6}
{"target": "MAPK1 (Homo sapiens, UniProt P28482)", "remaining activity [%]": 106}
{"target": "Cyclin-dependent kinase 1, with cyclin A (CDK1, Homo sapiens, UniProt P06493)", "remaining activity [%]": 60.3}
{"target": "KDR (Homo sapiens, UniProt P35968)", "remaining activity [%]": 89.8}
{"target": "MINK1 (Homo sapiens, UniProt Q8N4C8)", "remaining activity [%]": 82}
{"target": "TXK (Homo sapiens, UniProt P42681)", "remaining activity [%]": 65}
{"target": "MAPK11 (Homo sapiens, UniProt Q15759)", "remaining activity [%]": 103}
{"target": "PNCK (Homo sapiens, UniProt Q6P2M8)", "remaining activity [%]": 109}
{"target": "AKT2 (Homo sapiens, UniProt P31751)", "remaining activity [%]": 95.3}
{"target": "Cyclin-dependent kinase 9, with cyclin K (CDK9, Homo sapiens, UniProt P50750)", "remaining activity [%]": 42.8}
